# Measurements from different studies.
# Every numbered part comes from another study and shows a few of its results, in no order.

# Set 1
# Target: Hepatocyte nuclear factor 3-alpha (Foxa1, Mus musculus, UniProt P35582, residues 1-468, full length assumed)
# UniProt P35582, sequence (whole entry, looked up): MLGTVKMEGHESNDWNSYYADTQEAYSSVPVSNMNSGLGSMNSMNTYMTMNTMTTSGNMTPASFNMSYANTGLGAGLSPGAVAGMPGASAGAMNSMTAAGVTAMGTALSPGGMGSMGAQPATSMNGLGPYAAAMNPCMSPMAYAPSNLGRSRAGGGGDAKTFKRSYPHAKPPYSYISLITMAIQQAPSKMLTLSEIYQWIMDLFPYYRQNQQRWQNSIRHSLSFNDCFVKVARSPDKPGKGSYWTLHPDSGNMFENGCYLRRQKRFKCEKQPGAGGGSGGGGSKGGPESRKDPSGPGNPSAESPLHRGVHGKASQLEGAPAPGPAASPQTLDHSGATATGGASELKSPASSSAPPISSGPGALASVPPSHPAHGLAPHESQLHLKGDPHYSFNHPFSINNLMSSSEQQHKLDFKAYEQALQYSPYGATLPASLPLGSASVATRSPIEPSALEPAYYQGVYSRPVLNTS
# Method: EMSA with sequencing
# Molecule type: double-stranded DNA, one strand shown
# Matrix: in vitro
# Tested at: 10 and 20 nM
# Setting: whole designed probe, mean of two concentrations, ends assumed
# Relative to: negative control set to 0
# Direction: higher = stronger binding
Oligonucleotide,normalised bound fraction
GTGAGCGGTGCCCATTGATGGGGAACTCTTTCACTCAAGTGGTATATCCCACAGCCCTAAAGAAGCAAGGGAAATAAGAATTAGAACTAGACATCCCAGGAGACAAAGAATTCAACAAAGCAAACACACTACGTGCTTAACCAATCCCTTCACTATTTACAGAAAATCTCTCTGGCTCAGGCCGGGCAGTGAGTTCATTTATTTCAACAAAATCAAAGATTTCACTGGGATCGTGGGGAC,0.289 ratio
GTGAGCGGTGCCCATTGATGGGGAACGGGCCCAGCTGGAGCCTGAAGATACTGGGCTCCACCCAACATGTTGGGTGAGGGAAACTGGGCCATATTAGGAATTGCACAAAGATCTCAATGTAATCTGGAGCTGAACTGCAACCTGGGCATAAAGGAGAAACTGGATGTTTGGGTCCATAAGGCAGAGAAATGTTTGAGAACTTGTCTCAAAATTCTTCTGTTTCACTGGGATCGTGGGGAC,-0.0169 ratio
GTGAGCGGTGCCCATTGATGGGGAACTATCTTCTCCCCATTTATTAATTCACATATTTACATCAGCTTGGAGTTATTGATTTCTATTTTATTAAATAGTTTATAATTGATTACCATCCTAAATTATTTTAATGCTCAAATTGTCCCAAATTATGGCCAAAGAAAGCTCCTTCAAACTGGTTGCTATGTCCTTTTGACATGGCCCATCATTCTTTAAACATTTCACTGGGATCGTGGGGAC,0.0541 ratio
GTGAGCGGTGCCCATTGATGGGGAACCTCCAGGGTAGTTGTCCTTCCTGTGGCTGCTCACTGATCCAGGCTACTTTGATCTTGTGACTCAAAGTTCAACAAAATGTGGATGCGTCATTTTATTTACACTTCAATGGCCAGAACATACGAATTGGCCTCATCCAGTTGCAAGAAGTTTGGGAAATGTAGCCTTCCATATTTACAGGAATAAATGAAAAACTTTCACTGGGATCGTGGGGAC,0.29 ratio
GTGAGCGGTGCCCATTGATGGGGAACCTCGGAATTTAGATACATTAACCAGCTTTTCAGCAAATGTCACTTACCATAAGTTAGTTATTGTTTGTTTGTTTTTTGGGTATGTCAATTATATGTAAACATGGGGAAGCATTTCTAATTAATGTATTCATCAAATGTTATTTGTTTTAAAATAATTTTATTGTCCTTCATTACTAGGTTCTAAAATTGATATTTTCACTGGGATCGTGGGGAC,0.539 ratio
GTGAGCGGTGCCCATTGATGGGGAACAAGAGGGAGTGAAGGTCTCTGAAAATGTAGGAGTCCCTTTAGTAGATGGGGAGAAATGGGTTAAAGATTTTTAAAAATTGCACAGACAGTAGTAGATTGCTCTTTGGTTACAGGTGAATTATCTCTATCCTAGTTAGGAGTGGAGGACTGAAGTATGTCTCAATGCACAAACTAAGGCTGTGCAGGCTTGGAATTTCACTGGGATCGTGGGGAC,-0.0971 ratio

# Set 2
# Target: RING finger protein unkempt homolog, zinc fingers 1-6, GST-SBP tag (UNK, Homo sapiens, UniProt Q9C0B0, residues 30-357)
# Method: RNA Bind-n-Seq
# Molecule type: RNA
# Matrix: in vitro
# Tested at: not given
# Setting: RNA with constant flanks, ends assumed
# Relative to: input RNA pool
# Direction: higher = stronger binding
# Target sequence (chain): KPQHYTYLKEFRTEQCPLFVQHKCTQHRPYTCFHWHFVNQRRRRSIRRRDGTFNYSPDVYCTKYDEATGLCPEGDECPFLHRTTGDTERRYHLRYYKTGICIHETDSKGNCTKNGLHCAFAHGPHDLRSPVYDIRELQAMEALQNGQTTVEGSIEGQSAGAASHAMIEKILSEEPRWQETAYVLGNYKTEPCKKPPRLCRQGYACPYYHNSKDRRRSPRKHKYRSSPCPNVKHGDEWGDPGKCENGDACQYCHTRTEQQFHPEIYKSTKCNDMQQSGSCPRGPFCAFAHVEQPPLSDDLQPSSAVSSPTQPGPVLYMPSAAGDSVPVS
Oligonucleotide,bound/input enrichment [ratio]
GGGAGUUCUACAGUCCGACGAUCAUAUACUUUUAUCAUUUAAAUGUCUUAUUUGCUGCUAUGAAUAGGAAAUAACAUUUUGUACCGCAGGCUCUGUUUUACCCUAACAUUAAAAAAUUUCACUGAUCUUUCUUUCAUUAACAGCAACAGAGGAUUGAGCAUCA,2.64
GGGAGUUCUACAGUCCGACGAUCCGUUCUGCAUUAAGCCCCAGGUUCUCUUCUGGCUUUGAAAGGGCCCGAGUGCUCCCAGUGCCGCUUCGUCACAUCGUCACGAGCCCCUGUGGUCAUGGGCGACCUCACACCUCCCUCCCUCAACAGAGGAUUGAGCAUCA,0.13
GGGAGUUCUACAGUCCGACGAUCGCCAGUGCAAAGUAGCCAGAAGGCUGCCACGCCAGAGCGGCACAGAGUUCCCAAGUGUUCUCCGUUUUCGUGUCCGAGCGUCUUGGGCCGCUCUCUCCGGAGAACUGCGACCAGGAUGUGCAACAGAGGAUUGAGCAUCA,0.0581
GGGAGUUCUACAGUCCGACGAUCUUAGCUAAACAUCCAUGUAAUGCCUCAAUGGAAUGUGACAAGUGUCAGAGGCGGCAGAAGAACCGAGCAUUUUGCUACUUUUGUAAUUCUGUACAGAAGUUACCAAUUUGUGCACAGUGUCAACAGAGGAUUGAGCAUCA,0.343
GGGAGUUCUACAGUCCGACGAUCAGACCUUUGGGGACAACUAAAGCUGCGGGAUACAAAGUCAGCCCAGGCAGACCUCCAGGCCGCAUUAAAGCUCUAUCCCGUCUUGCCGAUCUUGGUUAUGGCUGUGGCACUGCUGCUUUUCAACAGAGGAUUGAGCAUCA,0.0594
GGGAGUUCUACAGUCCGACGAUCCAGGGUAUUGCCGCUGUUCUAAUAUUUUUUUAAGCAUAGACAGACUUAUAAUUAAUAUACAUCCGUCCGUGGCGUUGAAACAGUCCUCUGAGACAUUAACUAUAAGACUGUGUUCUGUUUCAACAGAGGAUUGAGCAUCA,0.736
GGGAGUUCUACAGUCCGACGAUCAUCUCCUUUUAUGCUCACCUGACAUUAAUUAUCUAUCCUUGAUGAUGUGUUUAAACUGAGCCGCAGAAAACAGAGGCCACACUUUCUGGGAAAUUUUAAAGGAAGAAACCAUUUUUAAUGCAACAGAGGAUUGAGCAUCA,0.17
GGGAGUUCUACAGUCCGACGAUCCUAGACUUCAAUAAGAAAAUCCUUCACACAGCCUGGCACCCCAAGGAAAAUAUCAUUGCCGCCGCUACUACAAACAAUCUGUAUAUAUUUCAAGACAAAGUGAAUUAGGGUUGGCAUUCCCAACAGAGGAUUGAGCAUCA,0.998

# Set 3
# Target: Histone acetyltransferase KAT6A, winged helix 1, GST fusion (KAT6A, Homo sapiens, UniProt Q92794, residues 1-85)
# Method: protein binding microarray
# Molecule type: double-stranded DNA, one strand shown
# Matrix: in vitro
# Tested at: not given
# Setting: 8-mer, flanks averaged, mean of 2 arrays, mostly near background
# Relative to: not given
# Direction: higher = stronger binding
# Residues (chain): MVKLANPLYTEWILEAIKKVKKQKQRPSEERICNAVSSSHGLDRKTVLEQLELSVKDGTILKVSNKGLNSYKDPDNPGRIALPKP
Oligonucleotide,E-score
AGAATGCC,0.103
AGTGTCAC,-0.0742
GGCTCTGA,-0.24
GAGCCTGA,0.0101
TGCACCCA,-0.153
AGAACGAA,-0.176
ATTATAAT,-0.0929
TCACGGGA,0.237
AAAGGTAA,-0.203
ACCGGACT,0.0685
AAAGAACA,-0.219
GCGTGGAC,0.233
TATTGTGA,-0.14
ATTGCGGG,0.301
CAATAGTG,0.034
AGAGTTCA,-0.272
AACCGGTC,0.0666
CAGTATAA,-0.0356
ATTATACG,0.16
GGGGGGAA,-0.0855
AAAAGACT,-0.0714
ACTGCAGA,-0.221
CCTCGATC,-0.193

# Set 4
# Target: RNA binding protein fox-1 homolog 2, RRM domain, GST-SBP tag (RBFOX2, Homo sapiens, UniProt O43251-10, residues 100-194)
# Method: RNA Bind-n-Seq
# Molecule type: RNA
# Matrix: in vitro
# Tested at: 365 nM
# Setting: natural RNA segment, single round, ends assumed
# Relative to: no-protein control
# Direction: higher = stronger binding
# Target sequence (chain): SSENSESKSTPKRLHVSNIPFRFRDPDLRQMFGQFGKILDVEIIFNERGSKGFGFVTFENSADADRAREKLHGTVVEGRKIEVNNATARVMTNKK
Oligonucleotide,RBNS enrichment (R)
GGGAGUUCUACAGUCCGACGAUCACAGGAGCGCAGUAUUUAGUCCAUUGUUUUAUCCAGUGAGACCCAAGCUAGCCUUGAAUAAUUCUUCUCUCGUCUUCCUGAAACACUAUUAUGCUUGUUGUACCUUUAAAUGGAAUUCUCGGGUGCCAA,0.73
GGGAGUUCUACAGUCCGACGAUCGGAGUCAAGUAAUGGAGGUCCCAGCCCUGGGGGUUUAAGCUCUGCCCCUUCCCCAUGAACCCUGCCCUGCUCUGCCCAGGCAAGGAACAGAAGUGAGGAUGAGACCCAGCUGGAAUUCUCGGGUGCCAA,0.277
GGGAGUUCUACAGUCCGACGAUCAAGGACCAGCACACUGGUGGCCAUUUUCUGCACAAGCAAAUGGAAUUGCUUUUUUUCAGCAUCCCAAUUGUUAUAGGUUGCUCCUGAUAGAGGUAGCCACAGUCCUGGAGUGGAAUUCUCGGGUGCCAA,0.363
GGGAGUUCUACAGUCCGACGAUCAGAUUUGAGGACUGAAGCUGGGGCUUGGGGAUUGCCACUAAGUACAGCUGACGGUUUCUCCCCGGACACUCGCCUACUAAGUACCCUUGGGGUGGUGCUGGGUCAUUACUUGGAAUUCUCGGGUGCCAA,0.328
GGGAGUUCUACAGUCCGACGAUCUGGGUGGCGGUGGUGGGGCCGGGUGGGCCCCCGCCCAGCGCCUGCUGGAAUGAGAAGCACAGACUCCGCCACGGACUCCUUUUCUCUCCCUCCUCCCGCCCCGCCAGGCCUGGAAUUCUCGGGUGCCAA,0.893
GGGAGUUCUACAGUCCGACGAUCUCAUUCCUGUCCCUUCCUGGCUUGAGCUCUUGGCUGUAUUCUGUGUGCCUCUACCAUGUCUGCUGUUUGGGUCUCUGCGCUGUGUGUUCUCAGGUGCAGCCAUGACUCCCUGGAAUUCUCGGGUGCCAA,1.08
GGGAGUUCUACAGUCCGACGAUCCACUGUUUCUUAAUUUUAUUGUUGUAUUCAUAUAUGUAGGAUUUGAAAUAUUGUGAUGCCCACCACGUCUGUAUUUCUUCUCUACUCCCCAGUCUUAACGUUUAUCUUUGUGGAAUUCUCGGGUGCCAA,0.589
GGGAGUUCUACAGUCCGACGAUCCUGCAACCUCCGCAUCCCGGGUUCAAGAGAUUCUGCCUCAGCCUCCAGAGUAGCUGGGACUACAAACGUGUGUCACCAGGCCCAGCUAAUUUUUGUAUUUUUAAUAAAGAUGGAAUUCUCGGGUGCCAA,1.55
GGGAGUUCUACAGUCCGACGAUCAGUAAUACUAAUUCACAGAGUAUUGUAAAUGGUGGAUGACAAAAGAAAAUCUGCUCUGUGGAAAGAAAGAACUGUCUCUACCAGGGUCAAGAGCAUGAACGCAUCAAUAGUGGAAUUCUCGGGUGCCAA,11.2

# A few entries again (set 4):
Oligonucleotide,RBNS enrichment (R)
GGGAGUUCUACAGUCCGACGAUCCUGCAACCUCCGCAUCCCGGGUUCAAGAGAUUCUGCCUCAGCCUCCAGAGUAGCUGGGACUACAAACGUGUGUCACCAGGCCCAGCUAAUUUUUGUAUUUUUAAUAAAGAUGGAAUUCUCGGGUGCCAA,1.55
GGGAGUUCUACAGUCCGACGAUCACAGGAGCGCAGUAUUUAGUCCAUUGUUUUAUCCAGUGAGACCCAAGCUAGCCUUGAAUAAUUCUUCUCUCGUCUUCCUGAAACACUAUUAUGCUUGUUGUACCUUUAAAUGGAAUUCUCGGGUGCCAA,0.73
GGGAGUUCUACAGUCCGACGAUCAAGGACCAGCACACUGGUGGCCAUUUUCUGCACAAGCAAAUGGAAUUGCUUUUUUUCAGCAUCCCAAUUGUUAUAGGUUGCUCCUGAUAGAGGUAGCCACAGUCCUGGAGUGGAAUUCUCGGGUGCCAA,0.363
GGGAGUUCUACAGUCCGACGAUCAGUAAUACUAAUUCACAGAGUAUUGUAAAUGGUGGAUGACAAAAGAAAAUCUGCUCUGUGGAAAGAAAGAACUGUCUCUACCAGGGUCAAGAGCAUGAACGCAUCAAUAGUGGAAUUCUCGGGUGCCAA,11.2
